Published values collected from several papers.
“And” joins repeats or separate records; there may be more than shown.
Target: G protein-coupled receptor kinase 5 (GRK5, Homo sapiens, UniProt P34947)

The inhibition of `CN1CC[C@@H](COc2cnc(C#N)cc2-c2ccn3nc(NC(=O)C4CC4)cc3c2)C1` is reported as -17% (enzyme activity, inhibitor; 1 µM).
`COc1c(OCCCN2CCOCC2)ccc2c1N=C(NC(=O)c1cnc(N)nc1)N1CCN=C21` gave a remaining activity of 109% (kinase activity, inhibitor; 1 µM; baseline: untreated control).
`COc1ccc(NC(=O)Nc2ccc3c(c2)C(=O)N(C(C)CO)CC(C)C(CN(C)Cc2ccc4c(c2)OCO4)O3)cc1` (stereo not drawn) gave a remaining activity of 98% (kinase activity, KinaseProfiler; 0.03 µM, species human; baseline: control).
With `COCC12C(=O)NC3C4(C(OC)CC1O)C1CC5(O)C(OC)C(O)C(OC(C)=O)(C1C5OC(=O)c1ccccc1)C3(O)C(OC)C24` (stereo not drawn) the remaining activity was 79% and 93% (kinase activity, inhibitor, ProQinase kinase profiling; 25 µM; baseline: control).
Under “activity vs control”, `CNC(=O)C[C@H](Cc1ccc(C#N)cc1)NC(=O)c1cc(-c2ccc(CN[C@H](C)c3ccc(C)cc3)o2)ccc1Cl` is recorded as 94% (enzyme activity, inhibitor; 1 µM).
`Nc1ncc(-c2cc(-c3cnn(CC(F)(F)F)c3)ncc2F)nc1C(=O)NC1CNCC(F)C1` (stereo not drawn) has a remaining activity of 98.7% (enzyme activity; 1 µM; baseline: DMSO control).
For `C=CC(=O)Nc1cc(-c2nn(C3CCN(CCNC(=O)[C@H](C)CCC45CC6CC(CC(C6)C4)C5)CC3)c3ncnc(N)c23)ccc1Oc1ccccc1`, the inhibition was 13% (inhibitor, KiNativ profiling; biochemical; 2 µM).
For `Cc1nc2c(F)cc(-c3nc(Nc4ccc(CNC(=O)CCCCCCC(=O)NO)cc4)ncc3F)cc2n1C(C)C`, the inhibition was 3% (enzyme activity, inhibitor; 1 µM).
The inhibition of `CCn1cc(C(=O)O)c(=O)c2c(N)c(F)c(NC3CCCCC3)cc21` is reported as -3.2% (kinase activity; 0.1 µM, together with: ATP at Km).
For `C=CC(=O)N1Cc2nc(-c3cc(-c4cc(Cl)cnc4Cl)c(F)cc3F)n(-c3ccncn3)c2C1`, the inhibition was 2.9% (cell-free assay, inhibitor; 1 µM).
`O=C=[N][Ru-4]123([n]4c5ccc(O)cc5c5c6c(c7cc(F)c[n+]1c7c54)C(=O)NC6=O)[S+]1CC[S+]2CC[S+]3CC1` (stereo not drawn) gave a remaining activity of 65% (enzyme activity; 100 nM, human enzyme, together with: 10 µM ATP; baseline: untreated).
`NC(=O)[C@@H](O)C[C@H]1CCc2sc3ncnc(O[C@H]4CC[C@H](N5CCOCC5)CC4)c3c21` gave an inhibition of 8% (enzyme activity, inhibitor; 10 µM).
`O=C(Cc1ccc(OCc2ccccc2)cc1)NC1(C(=O)O)CCN(C(=O)c2ccc(-c3cccc(Cl)c3)cc2)CC1`: “activity vs control” 109% (enzyme activity, inhibitor; 10 µM).
With `CN1CCN(Cc2ccc(-c3ccc(CO[C@H]4CCC[C@@H]4NC(=O)c4cc(-c5cnn(C)c5)cnc4N)cc3)cc2)CC1` the inhibition was 6% (enzyme activity, inhibitor; 0.1 µM).
The inhibition of `NC(=O)C[C@H]1CCc2sc3ncnc(O[C@H]4CC[C@H](N5CCOCC5)CC4)c3c21` is reported as 6% (enzyme activity, inhibitor; 10 µM).
